# Measurements pooled from the literature.
# A part holds a random share of what one study measured. Changes are numbered by the printed parent chain.

# Block 1 — method: RNAcompete; molecule type: RNA; sample: in vitro; tested at: 20 nM; setting: 7-mer, probes averaged, single round; relative to: mean of 7-mers; direction: higher = stronger binding
# Target: PABPC1L2, full length, GST fusion (mouse, UniProt A0ABA7IW68)
# Target sequence (chain): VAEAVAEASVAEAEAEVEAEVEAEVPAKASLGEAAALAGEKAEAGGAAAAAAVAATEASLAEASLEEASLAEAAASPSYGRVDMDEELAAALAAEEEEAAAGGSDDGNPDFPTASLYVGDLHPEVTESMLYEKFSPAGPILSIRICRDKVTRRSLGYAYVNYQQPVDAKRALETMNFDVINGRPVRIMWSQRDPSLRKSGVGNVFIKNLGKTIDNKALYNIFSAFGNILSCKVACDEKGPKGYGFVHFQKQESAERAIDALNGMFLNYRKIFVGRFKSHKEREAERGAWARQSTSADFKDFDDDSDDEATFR
Oligonucleotide,7-mer Z-score
UAGACGG,0.0442
ACAUCGU,-0.155
UAAGCUC,-0.295
UCGGGAA,0.0569
CUUGGCU,-0.121
CCCAAGU,-0.295
UAUUCGG,-0.197
GUAUGAG,-0.226
UACCAUA,0.0261

# Block 2 — method: universal PBM; molecule type: double-stranded DNA, one strand shown; sample: in vitro; tested at: not given; direction: higher = stronger binding
# Target: Sal-like protein 4, full length isoform B (SALL4, Homo sapiens, UniProt Q9UJQ4-2, residues 1-616)
# Setting: 8-mer, flanks averaged, mean of replicates
Oligonucleotide,E-score
AATTCAGC,-0.0626
CCCGCGGG,-0.337
AGCCCCTA,-0.252
GCCTTTTA,-0.0984
AATACTCA,0.251
CGCCTTAG,-0.287
TATCGCCA,0.0285
CCTCTGAG,-0.189
ACACTCCA,-0.00284
CGGGGCAA,-0.185
CAAATAGA,0.111
AGCAGCAA,-0.0263

# Block 3 — target: CCNF, cyclin fold, Cln2 fusion (human); method: yeast growth competition, sequencing; sample: yeast; setting: strong parent motif; relative to: not given; direction: higher = stronger binding
# Parent: ORC1 docking peptide (human); PRARKRLELGNLG
Substitution,normalised enrichment score
L12F,4.77
E8C,1.76
R6Y,1.54
L12G,2.76
N11C,4.61
R6S,0.269
R2I,4.21
G13I,3.68
N11H,3.89
L9R,1.4
K5S,1.33
R6N,1.18
L7V,0.786
L9E,0.894

# Further values, each from its own experiment
Substance,target,test,system,conditions,scale,quantity,value
"PhoQ, residues 284 288 289 292 302 303 SMYGEC","PhoP, residues 12 14 15 18 19 SGWQI (Escherichia coli, UniProt P23836)","Sort-seq, measured: YFP reporter",E. coli,"PhoQ-PhoP variant library, with: 10 µM Mg2+","relative to: high Mg2+ state, higher = stronger signaling",fold induction,3.55
